Measurements of several laboratories.
Lines come from different studies, so protocols differ. “And” joins repeats or separate records; there may be more than shown. ± gives the spread as reported. ≈ marks a conversion by molar mass, not a printed value.

Compound | test | test system | setting | scale | measurement | value
C=Cc1c(C)c2cc3nc(c(CC(=O)O)c4[nH]c(cc5nc(cc1[nH]2)C(C)=C5CC)c(C)c4C(=O)O)[C@@H](CCC(=O)NCCCC[C@H](NC(C)=O)C(=O)N[C@@H](Cc1ccccc1)C(=O)N[C@@H](Cc1ccccc1)C(=O)N[C@H](C(=O)N[C@@H](CC(C)C)C(=O)N[C@@H](CCCCN)C(=O)N[C@@H](CO)C(=O)NCC(=O)N[C@@H](CCC(N)=O)C(=O)N[C@@H](Cc1ccc(O)cc1)C(=O)N[C@@H](C)C(=O)N[C@@H](CO)C(=O)N[C@@H](Cc1ccc(O)cc1)C(=O)N[C@@H](Cc1c[nH]cn1)C(=O)N[C@@H](CS)C(=O)N[C@@H](Cc1c[nH]c2ccccc12)C(=O)N[C@@H](CS)C(=O)N[C@@H](Cc1c[nH]c2ccccc12)C(=O)N[C@@H](CCCNC(=N)N)C(=O)N[C@@H](CC(=O)O)C(=O)N1CCC[C@H]1C(=O)NCC(=O)N[C@@H](CCCNC(=N)N)C(=O)N[C@@H](CO)C(=O)NCC(=O)NCC(=O)N[C@@H](CO)C(=O)N[C@@H](CCCCN)C(N)=O)C(C)C)[C@@H]3C |  | mouse, blood | 2 h |  | blood concentration | 147 µg/mL and 137 µg/mL
CCc1nn(C)c2nc(-c3ccc(C(=O)O)cc3)nc(NCc3ccccc3)c12 |  | NSG mice | dose not given, day 4 of treatment |  | body weight | 23.1 g and 22.8 g and 21.9 g
N#[11C]c1ccc(-c2csc(NN=C3CCCC3)n2)cc1 |  | C57BL/6 mouse, male | intravenous, 3 MBq, 30 min |  | uptake in small intestine with contents | 39.2 %ID/g
CN[C@H](CC(C)C)C(=O)N[C@H]1C(=O)N[C@@H](CC(N)=O)C(=O)N[C@H]2C(=N)N[C@H]3C(=O)N[C@H](C(=O)N[C@H](C(=O)NCCCNC(=N)N)c4cc(O)cc(O)c4-c4cc3ccc4O)[C@H](O)c3ccc(c(Cl)c3)Oc3cc2cc(c3O[C@@H]2O[C@H](CO)[C@@H](O)[C@H](O)[C@H]2O[C@H]2C[C@](C)(NCc3ccc(-c4ccc(Cl)cc4)cc3)[C@H](O)[C@H](C)O2)Oc2ccc(cc2Cl)[C@H]1O |  | mouse | intravenous, 25 mg/kg |  | volume of distribution | 0.21 L/kg
CN1C(=O)[C@@H]2NC(=O)[C@@H]3NC(=O)[C@@H](c4ccc(O)cc4)NC(=O)[C@H](NC(=O)C(N)c4ccc(O)cc4)Cc4c[nH]c5cc(ccc45)-c4cc3cc(c4O)Oc3ccc(cc3)C[C@H]1C(=O)N[C@@H](C(=O)O)c1ccc(O)c(c1)Oc1ccc2cc1 (stereo partly drawn) |  | saline | 24 h, 25 °C |  | thermodynamic solubility | 6.1 µg/mL (≈ 5.44 µM)
CSCC[C@H](NC(=O)CNC(=O)[C@H](CCCCN)NC(=O)[C@H](CC(C)C)NC(=O)[C@@H]1CCCN1C(=O)[C@H](CO)NC(=O)[C@H](Cc1c[nH]cn1)NC(=O)[C@H](Cc1c[nH]c2ccccc12)NC(=O)[C@H](CCCNC(=N)N)NC(=O)[C@H](CC(C)C)NC(=O)[C@H](CCCNC(=N)N)NC(=O)[C@H](Cc1c[nH]c2ccccc12)NC(=O)[C@H](CS)NC(=O)CCCCCNC(=O)CN1CCN(CC(=O)O)CCN(CC(=O)O)CCN(CC(=O)O)CC1)C(=O)O [copper-64 labelled] | PET imaging | BALB/c nude mice, liver | intravenous, dose not given, 55 h, Huh-7 tumour-bearing |  | tissue uptake | 5.05 ± 0.19 %ID/g
CCCCCCCCCCCCCCCC(=O)N[C@@H](CCC(=O)NCCOCCOCCC(=O)NCCOCCOCCC(=O)NCCCC[C@H](NC(=O)[C@H](CC(=O)O)NC(=O)[C@H](CC(C)C)NC(=O)[C@H](Cc1ccc(O)cc1)NC(=O)[C@H](CCCCN)NC(=O)[C@H](CO)NC(=O)[C@H](Cc1ccc(O)cc1)NC(=O)[C@H](CC(=O)O)NC(=O)[C@H](CO)NC(=O)[C@@H](NC(=O)[C@H](Cc1ccccc1)NC(=O)[C@@H](NC(=O)CNC(=O)[C@H](CCC(N)=O)NC(=O)[C@@H](CO)NC(=O)[C@@H](N)Cc1c[nH]cn1)[C@@H](C)O)[C@@H](C)O)C(=O)N[C@@H](CCCNC(=N)N)C(=O)N[C@@H](CCCNC(=N)N)C(=O)N[C@@H](C)C(=O)N[C@@H](CCC(N)=O)C(=O)N[C@@H](CC(=O)O)C(=O)N[C@@H](Cc1ccccc1)C(=O)N[C@H](C(=O)N[C@@H](CCC(N)=O)C(=O)N[C@@H](Cc1c[nH]c2ccccc12)C(=O)N[C@@H](CC(C)C)C(=O)N[C@@H](CC(C)C)C(=O)N[C@@H](CC(N)=O)C(=O)N[C@H](C(=O)NCC(=O)NCC(=O)N1CCC[C@H]1C(=O)N[C@@H](CO)C(=O)N[C@@H](CO)C(=O)NCC(=O)N[C@@H](C)C(=O)N1CCC[C@H]1C(=O)N1CCC[C@H]1C(=O)N1CCC[C@H]1C(=O)N[C@@H](CO)C(N)=O)[C@@H](C)O)C(C)C)C(=O)O |  | Sprague-Dawley rat, male | subcutaneous, 100 µg/kg once daily, 14 days |  | urea | 3.74 ± 0.95 mmol/L
CC(=O)NCCCC[C@@H]1NC(=O)[C@H](Cc2c[nH]c3c(C)cccc23)NC(=O)[C@H]([C@@H](C)O)NC(=O)[C@H](CC(N)=O)NC(=O)[C@@H](NC(C)=O)C(C)(C)SSC(C)(C)[C@@H](C(=O)N[C@@H](Cc2ccc(OCCN)cc2)C(=O)N[C@@H](Cc2ccc3ccccc3c2)C(=O)NC2(C(=O)N[C@@H](CCC(=O)O)C(=O)N[C@@H](CC(N)=O)C(=O)N[C@@H](Cc3cccnc3)C(=O)N(C)CC(N)=O)CCOCC2)NC1=O |  | cynomolgus monkey, intervertebral ligament | intravenous, 1 mg/kg |  | tissue to plasma ratio | 156%
CC(C)[C@@H]1NC(=O)CNC(=O)[C@H](CC(N)=O)NC(=O)[C@H](CCCNC(=N)N)NC(=O)[C@H](Cc2ccc(O)cc2)NC(=O)[C@H](C(C)C)NC(=O)[C@@H](NC(=O)[C@@H](NC(=O)[C@H](CC(N)=O)NC(=O)[C@H](Cc2c[nH]c3ccccc23)NC(=O)[C@H](C)NC(=O)[C@H](Cc2ccccc2)NC(=O)CNC(=O)[C@H](CCCCN)NC(=O)[C@H](Cc2ccccc2)NC(=O)[C@H](Cc2ccccc2)NC(=O)[C@H](CCCCN)NC(=O)OCC2c3ccccc3-c3ccccc32)C(C)C)CSSC[C@@H](C(=O)N[C@@H](Cc2c[nH]cn2)C(=O)N[C@@H](CCCNC(=N)N)C(=O)N[C@@H](CCCNC(=N)N)C(=O)N[C@@H](C)C(=O)N[C@@H](CC(N)=O)C(N)=O)NC(=O)[C@H](C(C)C)NC(=O)[C@H](CCCNC(=N)N)NC1=O |  | ICR mouse, blood | intramammary, 5 mg/kg, day 5, 3 d dosing |  | haemoglobin | 123 ± 6.13 g/L
CCCC[C@H]1C(=O)N(C)[C@@H](CCCC)C(=O)N[C@@H](CCCNC(=O)CN2CCN(CC(=O)O)CCN(CC(=O)O)CCN(CC(=O)O)CC2)C(=O)N[C@H](C(=O)NCC(N)=O)CSCC(=O)N[C@@H](Cc2ccc(O)cc2)C(=O)N(C)[C@@H](C)C(=O)N[C@@H](CC(N)=O)C(=O)N2CCC[C@H]2C(=O)N[C@@H](Cc2c[nH]cn2)C(=O)N[C@@H](CC(C)C)C(=O)N(C)CC(=O)N[C@@H](Cc2c[nH]c3ccccc23)C(=O)N[C@@H](CO)C(=O)N[C@@H](Cc2c[nH]c3ccccc23)C(=O)N1C [gallium-68 labelled] |  | NOD/SCID mice with CHO-hPD-L1 xenograft, bone | 60 min post injection |  | tissue uptake | 4.96 ± 1.31 %ID/g
CN1Cc2cc(Cl)ccc2-n2c(nnc2C2CCN(c3cccc([18F])n3)CC2)C1 |  | C57BL/6 mouse male, testis | intravenous, 3.7 MBq, 60 min |  | tissue uptake | 1.54 ± 1.51 %ID/g
N=C(N)NCCC[C@H](NC(=O)[C@H](CCCNC(=N)N)NC(=O)[C@H](CCCNC(=N)N)NC(=O)[C@H](CCC(N)=O)NC(=O)[C@H](CCCNC(=N)N)NC(=O)[C@H](CCCNC(=N)N)NC(=O)[C@H](CCCCN)NC(=O)[C@H](CCCCN)NC(=O)[C@H](CCCNC(=N)N)NC(=O)CNC(=O)[C@H](Cc1ccc(O)cc1)NC(=O)[C@H](Cc1ccccc1)NC(=O)[C@H](Cc1ccccc1)NC(=O)[C@H](Cc1ccccc1)NC(=O)OCC1c2ccccc2-c2ccccc21)C(=O)O |  | C57BL/6 mice | intraperitoneal, 5 mg/kg, 6 h | direction not given | health score | 5
CC1(C)C(=O)N(c2ccc(C#N)c(C(F)(F)F)c2)C(=S)N1c1ccc(C(N)=O)c(F)c1 |  | healthy male humans, plasma | oral, 40 mg, fasting, soft capsules |  | median Tmax | 240 h
CC[C@H](C)[C@H](NC(=O)[C@H](CCCCN)NC(=O)CNC(=O)[C@H](CC(C)C)NC(=O)[C@H](Cc1ccccc1)NC(=O)[C@H](CCCCN)NC(=O)[C@H](CO)NC(=O)[C@H](Cc1ccccc1)NC(=O)[C@H](Cc1c[nH]c2ccccc12)NC(=O)[C@H](CCC(N)=O)NC(=O)[C@@H](NC(=O)[C@H](Cc1ccccc1)NC(=O)CCCCCNC(=O)CN1CCN(CC(=O)O)CCN(CC(=O)O)CCN(CC(=O)O)CC1)C(C)C)C(=O)N[C@@H](CCC(=O)O)C(=O)N1CCC[C@H]1C(=O)N[C@@H](CC(=O)O)C(=O)N[C@H](C(=O)N[C@@H](CO)C(=O)N[C@@H](CCC(N)=O)C(=O)N[C@H](C(=O)N[C@@H](CCC(N)=O)C(=O)N[C@@H](CC(=O)O)C(=O)N1CCC[C@H]1C(=O)N[C@@H](CC(N)=O)C(=O)N[C@@H](CC(=O)O)C(=O)N[C@@H](CCC(N)=O)C(=O)N[C@@H](Cc1ccc(O)cc1)C(=O)N[C@@H](CCC(=O)O)C(=O)N1CCC[C@H]1C(=O)N[C@@H](Cc1ccccc1)C(=O)O)C(C)C)C(C)C [copper-64 labelled] | dynamic PET | mouse both sexes, CT26 tumour, untreated, tumour | intravenous, 100 µCi/mouse, 1110 s |  | SUVmean | 0.7 SUV
COc1ccc([C@@H]2CC(=O)c3c(O)cc(O[C@@H]4O[C@H](CO)[C@@H](O)[C@H](O)[C@H]4O[C@@H]4O[C@@H](C)[C@H](O)[C@@H](O)[C@H]4O)cc3O2)cc1O |  | Sprague-Dawley rat, male, obese, faeces | oral, 100 mg/kg, 12-24 h |  | faecal excretion | 12000 ± 625 ng
C=CC(=O)Nc1cccc(Cn2ncc3cnc(Nc4cnn(CCOC)c4)nc32)c1 |  | Sprague-Dawley rat female, blood | oral, 180 mg/kg, day 28, 28-day subacute toxicity |  | haemoglobin | 132 ± 6.65 g/L
C=Cc1c(C)c2cc3nc(c(CC(=O)[O-])c4[n-]c(cc5nc(cc1[n-]2)C(C)=C5CC)c(C)c4C(=O)[O-])C(CCC(=O)[O-])C3C.[Cu+2].[Na+].[Na+].[Na+] (stereo not drawn) |  | Wistar rat, male | oral, 1000 mg/kg daily, 28 days |  | serum creatinine | 0.37 ± 0.05 mg/dL
O=C1NC2(CC2)COc2ncc(F)cc2[C@H]2COCCN2c2ccn3ncc1c3n2 |  | Sprague-Dawley rat, female, serum | oral, 5 mg/kg/day, 4 weeks daily, end of recovery period |  | alkaline phosphatase activity | 48.4 ± 12.4 U/L

Excerpt of the above:
Compound | test | test system | setting | scale | measurement | value
COc1ccc([C@@H]2CC(=O)c3c(O)cc(O[C@@H]4O[C@H](CO)[C@@H](O)[C@H](O)[C@H]4O[C@@H]4O[C@@H](C)[C@H](O)[C@@H](O)[C@H]4O)cc3O2)cc1O |  | Sprague-Dawley rat, male, obese, faeces | oral, 100 mg/kg, 12-24 h |  | faecal excretion | 12000 ± 625 ng
C=Cc1c(C)c2cc3nc(c(CC(=O)[O-])c4[n-]c(cc5nc(cc1[n-]2)C(C)=C5CC)c(C)c4C(=O)[O-])C(CCC(=O)[O-])C3C.[Cu+2].[Na+].[Na+].[Na+] (stereo not drawn) |  | Wistar rat, male | oral, 1000 mg/kg daily, 28 days |  | serum creatinine | 0.37 ± 0.05 mg/dL
